Values quoted from earlier work, collected from citations in different studies.
Lines come from different studies, so protocols differ.
Sequence of UniProt Q8IW41 (whole entry, looked up): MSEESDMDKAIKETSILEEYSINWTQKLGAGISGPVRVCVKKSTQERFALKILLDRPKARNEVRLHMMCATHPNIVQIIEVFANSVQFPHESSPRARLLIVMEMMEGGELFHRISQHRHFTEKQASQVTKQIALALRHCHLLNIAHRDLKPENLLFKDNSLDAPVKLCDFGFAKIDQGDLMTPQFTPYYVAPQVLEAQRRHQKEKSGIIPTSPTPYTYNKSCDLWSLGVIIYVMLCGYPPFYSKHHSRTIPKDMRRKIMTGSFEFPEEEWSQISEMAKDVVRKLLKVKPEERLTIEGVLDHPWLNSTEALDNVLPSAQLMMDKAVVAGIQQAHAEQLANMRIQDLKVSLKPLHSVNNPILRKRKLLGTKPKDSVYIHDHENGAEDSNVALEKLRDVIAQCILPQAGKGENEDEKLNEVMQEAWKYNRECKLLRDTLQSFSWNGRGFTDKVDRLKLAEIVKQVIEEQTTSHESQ

Compound | target or system | test | system | setting | scale | measurement | value
CC[C@@H](C(=O)Nc1ccc(C(N)=O)c(F)c1)n1cc(OC)c(-c2cc(Cl)ccc2-n2cc(C(F)(F)F)nn2)cc1=O | – | – | urine | concentration not given | – | fraction excreted unchanged | 9%
C[C@H](Cn1cnc2c(N)ncnc21)OCP(=O)(O)O | – | – | – | Simcyp first-order absorption | – | fraction absorbed | 0.2
CCC(C)n1ncn(-c2ccc(N3CCN(c4ccc(OCC5COC(Cn6cncn6)(c6ccc(Cl)cc6Cl)O5)cc4)CC3)cc2)c1=O (stereo not shown) | – | – | oral solution | fasted | – | fraction absorbed | 1
CN(C)C(=O)c1cc2cnc(Nc3ccc(N4CCNCC4)cn3)nc2n1C1CCCC1 | – | – | – | estimated | – | fraction absorbed | ~58.5%
C[C@@H](O)[C@H]1C(=O)N2C(C(=O)O)=C(S[C@@H]3CN[C@H](C(=O)N(C)C)C3)[C@H](C)[C@H]12 | – | – | healthy Chinese subjects | – | – | fraction excreted in urine | 61%
C[C@@H]1C[C@H]2[C@@H]3CCC4=CC(=O)C=C[C@]4(C)[C@@]3(F)[C@@H](O)C[C@]2(C)[C@@]1(O)C(=O)CO | – | – | plasma | Simcyp input parameter | – | fraction unbound in plasma | 0.28
CCC(C)n1ncn(-c2ccc(N3CCN(c4ccc(OCC5COC(Cn6cncn6)(c6ccc(Cl)cc6Cl)O5)cc4)CC3)cc2)c1=O (stereo not shown) | – | – | – | – | – | fraction absorbed | 0.59
CC(C)c1nc(N(C)S(C)(=O)=O)nc(-c2ccc(F)cc2)c1/C=C/[C@@H](O)C[C@@H](O)CC(=O)O | – | – | plasma | Simcyp input parameter | – | fraction unbound in plasma | 0.107
CC(O)C(C)n1ncn(-c2ccc(N3CCN(c4ccc(OCC5COC(Cn6cncn6)(c6ccc(Cl)cc6Cl)O5)cc4)CC3)cc2)c1=O (stereo not shown) | – | – | plasma | – | – | fraction unbound in plasma | 0.016
C[C@]1(c2nc3c(C(N)=O)cccc3[nH]2)CCCN1 | – | – | – | tablet vs solution | – | fraction absorbed | 1
O=C1Nc2ccc(Cl)cc2[C@@](C#CC2CC2)(C(F)(F)F)O1 | – | – | plasma | – | – | fraction unbound in plasma | 0.029
CC(C)(O/N=C(\C(=O)N[C@@H]1C(=O)N2C(C(=O)[O-])=C(C[n+]3ccccc3)CS[C@H]12)c1csc(N)n1)C(=O)O | – | – | healthy Chinese subjects | – | – | fraction excreted in urine | 82%
CC(C)(CO)c1cc2cc(NC(=O)C3(c4ccc5c(c4)OC(F)(F)O5)CC3)c(F)cc2n1C[C@@H](O)CO | – | – | microsomal incubation | CYP2C9 Ki | – | fraction unbound | 0.876
CO[C@H]1C[C@@H]2CC[C@@H](C)[C@@](O)(O2)C(=O)C(=O)N2CCCC[C@H]2C(=O)O[C@H]([C@H](C)C[C@@H]2CC[C@@H](O)[C@H](OC)C2)CC(=O)[C@H](C)/C=C(\C)[C@@H](O)[C@@H](OC)C(=O)[C@H](C)C[C@H](C)/C=C/C=C/C=C/1C | – | ADAM absorption model | – | – | – | fraction unbound in gut | 1
CN1CCC(COc2cnc(-c3cccc(Cn4nc(-c5cccc(C#N)c5)ccc4=O)c3)nc2)CC1 | – | – | – | – | – | fraction absorbed | ~0.85
Nc1cc(C(F)(F)F)c(-c2nc(N3CCOCC3)nc(N3CCOCC3)n2)cn1 | MAPKAPK5 (Homo sapiens, UniProt Q8IW41) | enzyme activity | – | 10 µM | reference: untreated | remaining activity | 89%

For quick reference, copied from above:
Compound | target or system | test | system | setting | scale | measurement | value
C[C@H](Cn1cnc2c(N)ncnc21)OCP(=O)(O)O | – | – | – | Simcyp first-order absorption | – | fraction absorbed | 0.2
